Experimental data of several laboratories.
Numbered parts are unrelated; each lists some results of a single study.

Series 1 — method: protein-binding microarray; molecule type: double-stranded DNA, one strand shown; matrix: in vitro; concentration: 2200 nM top; notes: 60-bp whole probe; together with: salmon DNA 0.4 mg/ml; reference: random background probes; reading: higher = stronger binding; shared flanks, not repeated: GCCTAGCAC … GTCTTGATTCGCTTGACGCTGCTG
Target: Interferon regulatory factor 7, full length, phosphomimetic (IRF7, Homo sapiens, UniProt Q92985, residues 1-503, S471D/S472D/S475D/S476D/S477D/S483D/S484D/S487D)
Sequence of UniProt Q92985 (whole entry, unmodified, looked up): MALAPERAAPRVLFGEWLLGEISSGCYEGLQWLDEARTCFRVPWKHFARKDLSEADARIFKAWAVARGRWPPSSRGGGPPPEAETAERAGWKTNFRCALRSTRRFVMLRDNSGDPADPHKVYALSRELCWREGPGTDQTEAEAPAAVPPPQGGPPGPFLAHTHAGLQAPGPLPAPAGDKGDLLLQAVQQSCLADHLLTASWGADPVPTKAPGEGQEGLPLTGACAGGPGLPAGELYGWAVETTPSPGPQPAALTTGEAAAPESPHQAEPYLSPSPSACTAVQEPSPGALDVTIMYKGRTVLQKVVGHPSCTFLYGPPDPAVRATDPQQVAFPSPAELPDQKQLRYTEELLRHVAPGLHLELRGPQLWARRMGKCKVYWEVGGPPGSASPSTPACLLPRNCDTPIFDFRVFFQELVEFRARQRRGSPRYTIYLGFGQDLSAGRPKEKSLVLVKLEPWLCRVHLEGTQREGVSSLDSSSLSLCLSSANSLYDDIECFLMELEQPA
`TCAATTTTAGTTTTCATACTGTGCTAG` — result for “fitted relative affinity”: 1.91 z-score.
Under “fitted relative affinity”, `TTAGATATTGGGTATCGATTAGTGCTA` is recorded as -0.034 z-score.
For `TTAGGTCTCGCTTTCGGTTAGTGCTAG`, “fitted relative affinity” read 7.69 z-score.
`GACGGTTTCCTTTTACTGACGTGCTAG` — result for “fitted relative affinity”: 5.57 z-score.
For `TTAGGTATCGACTATCGGTTTGTGCTA`, “fitted relative affinity” read 1.39 z-score.
For `GACGGTCTCCTTCGCCTGACGTGCTAG`, “fitted relative affinity” read 0.787 z-score.

Series 2 — method: universal PBM; molecule type: double-stranded DNA, one strand shown; matrix: in vitro; concentration: 600 nM; reading: higher = stronger binding
Target: Sal-like protein 4, full length isoform A (SALL4, Homo sapiens, UniProt Q9UJQ4, residues 1-1053)
Sequence of UniProt Q9UJQ4 (whole entry, looked up): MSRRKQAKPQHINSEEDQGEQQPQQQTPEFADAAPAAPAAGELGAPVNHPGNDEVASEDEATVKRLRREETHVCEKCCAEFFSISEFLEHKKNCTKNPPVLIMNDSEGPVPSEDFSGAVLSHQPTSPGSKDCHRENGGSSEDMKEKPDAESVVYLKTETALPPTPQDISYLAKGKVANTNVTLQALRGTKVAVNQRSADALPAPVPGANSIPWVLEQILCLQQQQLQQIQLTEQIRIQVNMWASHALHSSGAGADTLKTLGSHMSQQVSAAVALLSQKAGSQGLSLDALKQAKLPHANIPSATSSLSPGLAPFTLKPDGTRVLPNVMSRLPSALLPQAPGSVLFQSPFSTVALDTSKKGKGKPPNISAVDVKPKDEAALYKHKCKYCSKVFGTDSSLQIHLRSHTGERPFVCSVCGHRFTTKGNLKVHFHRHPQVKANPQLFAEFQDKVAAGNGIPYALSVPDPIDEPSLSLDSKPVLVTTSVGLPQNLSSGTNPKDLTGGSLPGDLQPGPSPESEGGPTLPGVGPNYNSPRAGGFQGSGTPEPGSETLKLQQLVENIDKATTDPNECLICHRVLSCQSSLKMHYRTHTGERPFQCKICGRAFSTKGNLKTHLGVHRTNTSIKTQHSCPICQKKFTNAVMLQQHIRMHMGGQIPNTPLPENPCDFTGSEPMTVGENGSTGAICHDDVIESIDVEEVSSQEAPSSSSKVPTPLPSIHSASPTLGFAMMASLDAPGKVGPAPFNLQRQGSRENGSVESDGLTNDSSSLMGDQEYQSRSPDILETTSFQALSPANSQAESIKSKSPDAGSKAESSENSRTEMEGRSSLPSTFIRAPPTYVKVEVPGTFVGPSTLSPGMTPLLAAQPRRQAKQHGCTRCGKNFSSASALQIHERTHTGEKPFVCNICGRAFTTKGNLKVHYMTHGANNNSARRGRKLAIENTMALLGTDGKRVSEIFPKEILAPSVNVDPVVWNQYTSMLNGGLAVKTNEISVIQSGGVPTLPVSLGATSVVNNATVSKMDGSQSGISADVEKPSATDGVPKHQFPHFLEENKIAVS
Notes: 8-mer, flanks averaged, mean of replicates
With `CTGCGTCC` the E-score was -0.296.
`AGTTCAAG` gave an E-score of 0.197.
With `AGAGAAGC` the E-score was -0.0857.
For `AGCATAAC`, the E-score was 0.204.
`CCGCGCAA` has an E-score of -0.137.

Series 3 — method: RNA Bind-n-Seq; molecule type: RNA; matrix: in vitro; concentration: 200 nM; notes: whole 134-nt RNA, ends assumed; together with: 150 mM LiCl; reference: input library; reading: higher = stronger binding; each molecule: 7-deaza-guanosine replaces G
Target: Ras GTPase-activating protein-binding protein 1, full length (G3BP1, Homo sapiens, UniProt Q13283)
Sequence of UniProt Q13283 (whole entry, looked up): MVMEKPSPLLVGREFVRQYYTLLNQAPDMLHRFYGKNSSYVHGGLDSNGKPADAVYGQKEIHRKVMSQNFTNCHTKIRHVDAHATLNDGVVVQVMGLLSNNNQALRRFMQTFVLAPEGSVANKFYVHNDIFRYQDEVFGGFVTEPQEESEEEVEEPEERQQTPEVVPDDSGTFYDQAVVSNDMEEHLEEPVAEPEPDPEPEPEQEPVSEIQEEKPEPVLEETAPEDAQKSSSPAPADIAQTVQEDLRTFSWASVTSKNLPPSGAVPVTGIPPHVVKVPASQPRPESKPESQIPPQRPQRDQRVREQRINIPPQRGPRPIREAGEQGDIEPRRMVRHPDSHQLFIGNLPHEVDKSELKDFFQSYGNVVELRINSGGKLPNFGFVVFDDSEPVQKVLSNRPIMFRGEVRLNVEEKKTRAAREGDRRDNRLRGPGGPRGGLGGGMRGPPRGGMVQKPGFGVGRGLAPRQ
For `GGGAGUUCUACAGUCCGACGAUCGCAGGAAGUAAAAACAAAUGGAAAUGCUUCGGAUAGUGGCAGAAAUGGGGGUUGCUAAGGAAAGGGUGGGAUGGGAGUGGGUAAAGAGUUUGGAAUUCUCGGGUGUCAAGG`, the log2 enrichment was 0.196.
The log2 enrichment of `GGGAGUUCUACAGUCCGACGAUCCCUGUGCUACACAUCGUAUGUACCGAAUCGGGUUUUUGGGUUUUUUUGGGUUUUUUUGGGAAAGUAUUAUGUUACGCCGUUCGGAUCUGCUGGAAUUCUCGGGUGUCAAGG` is reported as -0.0224.
The log2 enrichment of `GGGAGUUCUACAGUCCGACGAUCCACAGACAACACGCACCCACACAGACACAGAGGGAAGGGGUUGGGAUGGGGACAGGGUGCACCGCAGGGCGGGGUAGGACCCCAGCCCCUUGGAAUUCUCGGGUGUCAAGG` is reported as 0.891.
`GGGAGUUCUACAGUCCGACGAUCAGUCCUGUGCUACACAUCGUAUGUACCGAAUCGGGUUUUUGGGUUUGGGAAAAAGGGAAAGUAUUAUGUUACGCCGUUCGGAUCUGCACUUGGAAUUCUCGGGUGUCAAGG` has a log2 enrichment of -1.13.

Further values, each from its own experiment
`PhoQ, residues 284 288 289 292 302 303 NLCILV` gave a fold induction of 1.2 (PhoP, residues 12 14 15 18 19 AWHSL (Escherichia coli, UniProt P23836); Sort-seq, item: YFP reporter; E. coli; PhoQ-PhoP variant library, together with: 10 µM Mg2+; reference: high Mg2+ state, higher = stronger signaling).
